Measured values from different studies.
Numbered parts are unrelated; each lists some results of a single study. ± gives the spread as reported.

Series 1
Organism: MERS-CoV spike VSV pseudovirus
Read-out: pseudovirus entry
Tested at: 10 µM
`N#C/C(=C\Nc1cc(C(F)(F)F)cc(C(F)(F)F)c1)S(=O)(=O)Cc1ccc(Cl)cc1` has an inhibition of 57%.
The inhibition of `Cc1cccc(-c2[nH]c(C(C)(C)C)nc2-c2ccc3c(c2)OCO3)n1` is reported as 56%.
For `Oc1ccc(CN2CCN(Cc3ccc(Br)s3)CC2)c2cccnc12`, the inhibition was 53%.
For `c1ccc(Nc2nccc(-c3ccncc3)n2)cc1`, the inhibition was 52%.
The inhibition of `FC(F)(F)c1cc(NC(=S)N/N=C/c2ccccn2)cc(C(F)(F)F)c1` is reported as 75%.
The inhibition of `O=C(NCC(F)(F)F)c1ccc(CN(Cc2cc(Cl)cc3c2OCOC3)C2CC2)cc1` is reported as 47%.
With `Cc1ccc(/C(C#N)=C2\C=CC(=NO)C(Cl)=C2)cc1` the inhibition was 28%.
With `N=C(N)Nc1ccc(C(=O)Oc2ccc3cc(C(=N)N)ccc3c2)cc1` the inhibition was 79%.

Mixed results
For `Nc1ncc(-c2cn([C@@H]3O[C@](F)(CO)[C@@H](O)[C@H]3O)cn2)cn1`, the IC50 was > 100 µM (Zaire ebolavirus; viral replication, reporter virus; Huh-7; 72 h).
The IC50 of `COP(=O)(OC)Oc1ccc([N+](=O)[O-])cc1` is reported as 0.007 µM (muscarinic receptors, rat; radioligand displacement; adult cortex membranes; 90 min, 21 °C, added: 1 nM [3H]oxotremorine-M).
`NC(=O)c1nc(F)c[nH]c1=O` has an EC50 of 77.3 ± 13.3 µM (Lassa virus; HeLa, clade III Nigeria-231).
`CC[C@H](C)[C@H](NC(=O)[C@H](CCC(N)=O)NC(=O)[C@H](CC(=O)O)NC(=O)[C@@H](NC(=O)[C@H](C)NC(=O)[C@H](C)NC(=O)[C@H](CC(N)=O)NC(=O)[C@@H](NC(=O)[C@@H](NC(=O)[C@H](C)NC(=O)[C@H](CCC(=O)O)NC(=O)CNC(=O)[C@H](C)NC(=O)[C@H](C)NC(=O)[C@H](CCC(=O)O)NC(=O)[C@H](C)NC(=O)[C@H](C)NC(=O)CNC(=O)[C@H](CCCCN)NC(=O)CNC(=O)[C@H](Cc1ccccc1)NC(=O)[C@H](CO)NC(=O)[C@@H](NC(=O)[C@H](CC(C)C)NC(=O)[C@@H](NC(=O)[C@H](CC(N)=O)NC(=O)[C@H](CCCNC(=N)N)NC(=O)CNC(=O)[C@H](Cc1ccccc1)NC(=O)[C@H](CCCCN)NC(=O)[C@H](CO)NC(=O)CNC(=O)[C@H](CCCCN)NC(=O)[C@H](CCCNC(=N)N)NC(=O)[C@H](CCCCN)NC(=O)[C@H](CCCCN)NC(=O)[C@H](CCCNC(=N)N)NC(=O)[C@@H](N)CCCCN)[C@@H](C)CC)[C@@H](C)O)[C@@H](C)O)C(C)C)C(C)C)C(=O)N[C@@H](CC(C)C)C(=O)N[C@@H](CCC(=O)O)C(=O)N[C@@H](C)C(=O)N[C@@H](CCC(N)=O)C(=O)NCC(=O)N[C@@H](CCC(=O)O)C(=O)NCC(=O)N[C@@H](CCC(=O)O)C(=O)N[C@@H](Cc1ccc(O)cc1)C(=O)O` gave an EC50 of 2.29 µM (Drosophila melanogaster; calcium response, calcium imaging; class III da neurons, ppk1.9-Gal4 UAS-GCaMP6f).
With `CCOc1nc(N)ncc1-c1cn([C@@H]2O[C@](F)(CO[P@@](=O)(N[C@@H](C)C(=O)OC(C)C)Oc3ccccc3)[C@@H](OC(=O)C(C)C)[C@H]2OC(=O)C(C)C)cn1` the IC50 was 68.5 µM (Zaire ebolavirus; viral replication, reporter virus; Huh-7; 72 h).
`CC[C@H](C)[C@H](NC(=O)CNC(=O)CNC(=O)[C@@H](NC(=O)[C@@H](N)CCCNC(=N)N)[C@@H](C)CC)C(=O)N[C@@H](CC(C)C)C(=O)N[C@@H](CCCCN)C(=O)N[C@H](C(=O)N[C@@H](CC(C)C)C(=O)N[C@@H](CCCCN)C(=O)N[C@@H](CCCCN)C(=O)N[C@H](C(=O)N[C@@H](CC(C)C)C(=O)N1CCC[C@H]1C(=O)N[C@@H](CCCCN)C(=O)N[C@@H](C)C(=O)N[C@H](C(=O)N[C@@H](CCCCN)C(=O)N[C@@H](C)C(=O)N[C@@H](C)C(=O)N[C@@H](C)C(=O)N[C@@H](CCC(=O)O)C(=O)N[C@@H](CCSC)C(=O)N[C@@H](C)C(=O)N1CCC[C@H]1C(=O)N1CCC[C@H]1C(=O)N[C@@H](CCC(N)=O)C(=O)N[C@@H](CC(N)=O)C(=O)N[C@@H](CCC(=O)O)C(=O)O)[C@@H](C)CC)C(C)C)[C@@H](C)CC` gave an EC50 of 14.7 µM (Drosophila melanogaster; calcium response, calcium imaging; class III da neurons, ppk1.9-Gal4 UAS-GCaMP6f).
The EC50 of `NC(=O)c1ncn([C@@H]2O[C@H](CO)[C@@H](O)[C@H]2O)n1` is reported as 2.31 ± 0.33 µM (Lassa virus; HeLa, clade II Nigeria-322).
For `CSCC[C@H](NC(=O)[C@H](CC(C)C)NC(=O)[C@H](C)N)C(=O)N[C@@H](CC(C)C)C(=O)N[C@@H](CCCNC(=N)N)C(=O)N[C@@H](CC(C)C)C(=O)N[C@@H](CC(C)C)C(=O)N[C@@H](CCCNC(=N)N)C(=O)N[C@H](C(=O)O)[C@@H](C)O`, “IFN-γ+ CD8+ T cells” read 0.5% (epitope-specific T-cell response, intracellular cytokine staining; PBMC, human; dose not given).

Repeated from above (mixed results):
For `Nc1ncc(-c2cn([C@@H]3O[C@](F)(CO)[C@@H](O)[C@H]3O)cn2)cn1`, the IC50 was > 100 µM (Zaire ebolavirus; viral replication, reporter virus; Huh-7; 72 h).
The IC50 of `COP(=O)(OC)Oc1ccc([N+](=O)[O-])cc1` is reported as 0.007 µM (muscarinic receptors, rat; radioligand displacement; adult cortex membranes; 90 min, 21 °C, added: 1 nM [3H]oxotremorine-M).
